Experimental data of several laboratories.
Lines come from different studies, so protocols differ. ± marks the error that the study gave.
Cell line: K562

| Structure (SMILES) | read-out | method | concentration | time | measurement | value |
| --- | --- | --- | --- | --- | --- | --- |
| Cc1[nH][n+]([Pt-2]([Cl])([n+]2[nH]c(C)c(CSCc3ccccc3)c2C)[n+]2[nH]c(C)c(CSCc3ccccc3)c2C)c(C)c1CSCc1ccccc1.Cl | cytotoxicity | 7-AAD flow cytometry | – | 24 h | IC50 | 0.3 ± 0.03 µM |
| CCCCn1cc(C(=O)O)c(=O)c2cc(F)c3c(nnn3-c3cccc(OC)c3)c21 | cell growth or viability | SRB | – | – | IC50 | 70.4 µM |
| COc1ccc(-c2coc3c(CC=C(C)C)c(O)c(CC=C(C)C)c(O)c3c2=O)cc1O | cell growth or viability | MTT | 12.5 µg/mL | – | viability | 55% |
| CC(C)=CCCC(C)C1CCC2(C)C3=C(CCC12C)C1(C)CCC(=O)C(C)(C)C1CC3 (stereo not drawn) | cell growth or viability | SRB | 50 µM | – | inhibition | 95% |
| Cc1[nH][n+]([Pd-2]([Br])([Br])[n+]2[nH]c(C)c(CSCc3ccccc3)c2C)c(C)c1CSCc1ccccc1 | cytotoxicity | 7-AAD flow cytometry | – | 24 h | IC50 | 0.68 ± 0.04 µM |
| CCCCn1cc(C(=O)O)c(=O)c2cc(F)c3c(nnn3-c3ccccc3OC)c21 | cell growth | SRB | – | 72 h | IC50 | 114 ± 10.2 mg/L |
| C[C@H](CCC=O)[C@@H]1CC[C@]2(C)C3=C(CC[C@@]12C)[C@@]1(C)CC[C@H](O)C(C)(C)[C@@H]1CC3 | cell growth or viability | SRB | 50 µM | – | inhibition | 100% |
| CC(C)=CCc1c2c(c(O)c3c(=O)c(-c4ccc(O)cc4)coc13)CC(C(C)(C)O)O2 (stereo not drawn) | cell growth or viability | MTT | 50 µg/mL | – | viability | 11.6% |
| CCCCn1cc(C(=O)O)c(=O)c2cc(F)c(Nc3ccccc3OC)c([N+](=O)[O-])c21 | cell growth | SRB | – | 72 h | IC50 | 15.3 ± 2.63 mg/L |
| COC1CCC2(C)C3=C(CCC2C1(C)C)C1(C)CCC(C(C)CCC=C(C)C)C1(C)CC3 (stereo not drawn) | cell growth or viability | SRB | 50 µM | – | inhibition | 57.8% |
| CCCCn1cc(C(=O)O)c(=O)c2cc(F)c(Nc3cc(OC)c(OC)c(OC)c3)c([N+](=O)[O-])c21 | cell growth | SRB | – | 72 h | IC50 | 22.5 ± 0.57 mg/L |
| CC(C)=CCc1cc(-c2coc3cc(O)c(CC=C(C)C)c(O)c3c2=O)ccc1O | cell growth or viability | MTT | 6.25 µg/mL | – | viability | 98.5% |

Repeated from above:
| Structure (SMILES) | read-out | method | concentration | time | measurement | value |
| --- | --- | --- | --- | --- | --- | --- |
| COc1ccc(-c2coc3c(CC=C(C)C)c(O)c(CC=C(C)C)c(O)c3c2=O)cc1O | cell growth or viability | MTT | 12.5 µg/mL | – | viability | 55% |
| CC(C)=CCCC(C)C1CCC2(C)C3=C(CCC12C)C1(C)CCC(=O)C(C)(C)C1CC3 (stereo not drawn) | cell growth or viability | SRB | 50 µM | – | inhibition | 95% |
